Measured values from different studies.
Each line is one published result; not all experiments were run side by side. “And” joins repeats or separate records; there may be more than shown. Numbers after ± are the reported error.
Albumin: Albumin (Mus musculus, UniProt P07724)
Chain of UniProt P07724 (whole entry, looked up): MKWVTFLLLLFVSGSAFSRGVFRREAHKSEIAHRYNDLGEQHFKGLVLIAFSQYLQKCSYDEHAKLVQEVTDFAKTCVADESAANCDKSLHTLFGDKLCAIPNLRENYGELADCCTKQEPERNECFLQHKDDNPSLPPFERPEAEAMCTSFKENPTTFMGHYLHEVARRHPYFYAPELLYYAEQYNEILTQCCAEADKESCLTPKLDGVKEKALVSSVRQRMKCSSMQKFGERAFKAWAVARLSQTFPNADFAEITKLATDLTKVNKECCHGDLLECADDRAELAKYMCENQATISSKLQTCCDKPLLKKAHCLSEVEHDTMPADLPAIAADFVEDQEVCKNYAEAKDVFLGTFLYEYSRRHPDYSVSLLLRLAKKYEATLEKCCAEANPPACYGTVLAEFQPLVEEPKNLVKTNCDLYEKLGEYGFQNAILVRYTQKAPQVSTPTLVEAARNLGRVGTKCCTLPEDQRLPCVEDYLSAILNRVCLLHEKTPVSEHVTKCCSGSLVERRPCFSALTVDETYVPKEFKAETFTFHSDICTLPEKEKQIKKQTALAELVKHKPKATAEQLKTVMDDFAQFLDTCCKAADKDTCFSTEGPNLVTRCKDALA
Uncharacterized protein: Uncharacterized protein (Trypanosoma brucei brucei, UniProt Q386Q8)
Chain of UniProt P20813 (whole entry, looked up): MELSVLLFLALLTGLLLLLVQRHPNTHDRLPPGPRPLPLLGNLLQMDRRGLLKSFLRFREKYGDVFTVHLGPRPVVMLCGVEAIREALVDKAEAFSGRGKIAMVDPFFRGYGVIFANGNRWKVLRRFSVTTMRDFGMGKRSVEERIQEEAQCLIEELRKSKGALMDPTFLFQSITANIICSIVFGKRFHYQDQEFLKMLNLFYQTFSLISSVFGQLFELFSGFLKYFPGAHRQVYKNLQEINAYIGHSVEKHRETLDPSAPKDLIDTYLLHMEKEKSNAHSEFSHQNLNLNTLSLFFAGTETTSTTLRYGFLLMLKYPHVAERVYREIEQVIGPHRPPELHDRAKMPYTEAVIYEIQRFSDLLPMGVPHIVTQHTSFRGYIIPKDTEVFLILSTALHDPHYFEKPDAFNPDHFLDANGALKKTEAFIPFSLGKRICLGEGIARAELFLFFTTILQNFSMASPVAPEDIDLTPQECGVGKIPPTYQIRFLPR
Chain of UniProt P35916 (whole entry, looked up): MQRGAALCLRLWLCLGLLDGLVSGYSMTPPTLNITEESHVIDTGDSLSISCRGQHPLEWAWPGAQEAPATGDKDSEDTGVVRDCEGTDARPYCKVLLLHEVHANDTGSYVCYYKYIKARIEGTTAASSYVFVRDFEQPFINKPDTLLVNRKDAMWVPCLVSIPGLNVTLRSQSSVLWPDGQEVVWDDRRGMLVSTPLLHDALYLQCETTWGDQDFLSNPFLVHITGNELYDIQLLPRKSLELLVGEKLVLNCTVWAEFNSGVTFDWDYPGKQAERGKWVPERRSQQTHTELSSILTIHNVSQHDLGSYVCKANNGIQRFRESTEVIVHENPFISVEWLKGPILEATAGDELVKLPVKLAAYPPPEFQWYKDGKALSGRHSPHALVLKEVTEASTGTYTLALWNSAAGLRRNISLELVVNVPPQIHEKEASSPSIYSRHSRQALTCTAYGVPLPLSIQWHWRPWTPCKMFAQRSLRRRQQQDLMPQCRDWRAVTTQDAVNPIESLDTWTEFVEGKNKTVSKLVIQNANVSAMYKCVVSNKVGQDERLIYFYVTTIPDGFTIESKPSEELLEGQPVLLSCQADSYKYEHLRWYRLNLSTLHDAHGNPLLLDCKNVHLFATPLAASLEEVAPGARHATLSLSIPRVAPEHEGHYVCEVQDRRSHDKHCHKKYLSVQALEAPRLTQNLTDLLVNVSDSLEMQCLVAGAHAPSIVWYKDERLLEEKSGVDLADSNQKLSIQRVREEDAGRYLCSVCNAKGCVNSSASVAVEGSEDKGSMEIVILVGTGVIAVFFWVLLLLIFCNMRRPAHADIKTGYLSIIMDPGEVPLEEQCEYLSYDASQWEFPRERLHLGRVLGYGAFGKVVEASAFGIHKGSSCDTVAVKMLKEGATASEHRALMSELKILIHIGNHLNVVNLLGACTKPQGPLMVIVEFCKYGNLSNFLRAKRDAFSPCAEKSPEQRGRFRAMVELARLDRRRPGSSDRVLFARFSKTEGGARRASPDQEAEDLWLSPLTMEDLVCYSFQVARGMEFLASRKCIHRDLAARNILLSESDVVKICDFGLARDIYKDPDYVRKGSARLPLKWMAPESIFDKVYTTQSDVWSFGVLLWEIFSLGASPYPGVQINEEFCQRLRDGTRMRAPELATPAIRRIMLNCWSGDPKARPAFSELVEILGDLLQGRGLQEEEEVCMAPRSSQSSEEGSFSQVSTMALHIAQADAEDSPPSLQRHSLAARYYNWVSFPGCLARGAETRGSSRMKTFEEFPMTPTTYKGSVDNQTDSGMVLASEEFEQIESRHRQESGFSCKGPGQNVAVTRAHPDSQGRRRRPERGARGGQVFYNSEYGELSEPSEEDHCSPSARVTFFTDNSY

`O=C1C2CC3CC1CC(C(=O)N1CCN(c4ccc([N+](=O)[O-])c5ncccc45)CC1)(C3)C2` — result for “mean revertant colonies”: 4 colonies/well (Salmonella typhimurium; Ames test; TA98; 0.78 µg/well, without S9).
`N#C[C@@H]1CC(F)(F)CN1C(=O)CNC(=O)c1ccnc2c(NC(=O)CCOCCOCCOCCOCCOCCOCCNC(=O)[C@H](CCCCNC(=O)CN3CCN(CC(=O)[O-])CCN(CC(=O)[O-])CCN(CC(=O)[O-])CC3)NC(=O)CCCc3ccc(I)cc3)cccc12.[177Lu+3]` gave a tracer uptake of 2.42 %ID/g (U-87 MG tumour model; host not given, liver; 24 h, tumour-bearing).
`Cc1cc(O)c(=O)c(O)cc1C(=O)C(C)C` has a CC50 of over 100 µM (HepDES19; cell growth or viability, MTS; 72 h).
With `N#C[C@@H]1CCCN1C(=O)CNC(=O)c1ccnc2ccc(OCCCN3CCN(C(=O)CCc4ccc5c(c4)CN4CCN(Cc6cc(CCC(=O)O)ccc6O)CC(=O)[O][Al-]([18F])([O]C(=O)C4)[O]5)CC3)cc12` (some centres unmarked) the tracer uptake was 2.12 %ID/g (U-87 MG tumour model; host not given, blood; 1 h, tumour-bearing).
The Kd of `CN(C)c1ccc2c(c1)[Si](C)(C)c1cc(N(C)C)ccc1C21OC(=O)c2cc(C(=O)O)ccc21` is reported as 17 ± 4 µM (Albumin; binding, fluorescence titration; PBS).
With `C[N+]1(Cc2ccc3ccccc3c2)CCN(CCCN2c3ccccc3Sc3ccc(Cl)cc32)CC1` the IC50 was 50.2 µM (Uncharacterized protein; enzyme activity, inhibitor, coupled colorimetric; together with: E. coli pyrophosphatase coupling).
For `CCN(CC)CC#CCNc1ccnc2cc(Cl)ccc12`, “revertants per well” read 74 (Salmonella typhimurium; mini-Ames test; TA102; 62.5 µg/well, without S9).
With `Nc1nc2cc(C(=O)c3ccc(F)cc3)ccc2[nH]1` the revertants was 15.3 revertants per plate (Salmonella typhimurium; Ames preincubation test; TA1537; 19.5 µg per plate, 3 days, without S9).
`COc1ccccc1C(=O)Oc1cccccc1=O` has a CC50 of over 100 µM (HepDES19; cell growth or viability, MTS; 72 h).
`COC1CN([C@H]2CC[C@H]([C@@]3(C)Oc4c(Cl)cc(C(=O)NCc5c(SC)cc(C)[nH]c5=O)c(C)c4O3)CC2)C1`: “log2 fold change” 0.467 (RNA-seq, measured: UBAP1 mouse homolog; mouse, HT-1376 xenograft, whole blood; dose not given; reference: vehicle).
The AUC(0-t) of `C=C1CC[C@H](OCCCNC(=O)CCOCCOCCOCCOCCOCCOCCOCCOCCOCCOCCOCCOCCOCCOCCOCCOCCOCCOCCOCCOCCOCCOCCOCCOCCOCCOCCOCCOCCOCCOCCOCCOCCOCCOCCOCCOCCNC(=O)CCN2C(=O)CC(SC[C@H](NC(=O)[C@H](Cc3ccccc3)NC(=O)[C@H](CC(N)=O)NC(=O)[C@H](Cc3c[nH]cn3)NC(=O)[C@@H](NC(=O)[C@H](CC(=O)O)NC(=O)[C@H](CCC(N)=O)NC(=O)[C@H](CC(C)C)NC(=O)[C@H](CCCCN)NC(=O)[C@H](CCCCN)NC(=O)[C@H](CCCNC(=N)N)NC(=O)[C@H](CC(C)C)NC(=O)[C@H](Cc3c[nH]c4ccccc34)NC(=O)[C@H](CCC(=O)O)NC(=O)[C@@H](NC(=O)[C@H](CCCNC(=N)N)NC(=O)[C@H](CCC(=O)O)NC(=O)[C@H](CCSC)NC(=O)[C@H](CO)NC(=O)[C@H](CC(N)=O)NC(=O)[C@H](CC(C)C)NC(=O)[C@H](Cc3c[nH]cn3)NC(=O)[C@H](CCCCN)NC(=O)CNC(=O)[C@H](CC(C)C)NC(=O)[C@H](CC(N)=O)NC(=O)[C@H](Cc3c[nH]cn3)NC(=O)[C@H](CCSC)NC(=O)[C@H](CC(C)C)NC(=O)[C@H](CCC(N)=O)NC(=O)[C@@H](NC(=O)[C@H](CCC(=O)O)NC(=O)[C@H](CO)NC(=O)[C@@H](NC(=O)[C@@H](N)CO)C(C)C)[C@@H](C)CC)C(C)C)C(C)C)C(=O)O)C2=O)C/C1=C/C=C1\CCC[C@]2(C)[C@@H]([C@H](C)CCCC(C)(C)O)CC[C@@H]12` (some centres unmarked) is reported as 403 ng·h/mL (male cynomolgus monkey, plasma; subcutaneous, 0.007 mg/kg, single dose).
`Nc1ncc(-c2cc(-c3cnn(CC(F)(F)F)c3)ncc2F)nc1C(=O)NC1CNCC(F)C1` (centres unmarked) has a remaining binding of 87% (MTOR; KINOMEscan; 1 µM; reference: DMSO control).
`CNS(=O)(=O)Nc1nccc(Cc2c(C)c3ccc(Oc4ncccc4F)cc3oc2=O)c1F` has an IC50 of over 1 µM (EFM-19; cell viability; 7 days).
`Cc1ncsc1-c1ccc(C(C)NC(=O)C2CC(O)CN2C(=O)C(NC(=O)CCCCCCCCCCN2CCCC(Nc3ncc(Cl)c(Nc4ccccc4S(=O)(=O)C(C)C)n3)C2)C(C)(C)C)cc1` (centres unmarked): “log2 fold change” -1.13 (22Rv1; RNA-seq, measured: RPP38 mRNA; concentration not given; reference: DMSO).
With `C=C(C)C1CCc2c(c(C)cc(O)c(=O)c2O)C1` (centres unmarked) the CC50 was 35 µM (HepDES19; cell growth or viability, MTS; 72 h).
`COc1cccc(OC)c1-c1cc(C(=O)NC2(C(=O)O)C3CC4CC(C3)CC2C4)nn1-c1ccc(C(=O)N(C)CCCN(C)C(=O)[C@H](CCCCNC(=O)[C@H](CC(C)C)NC(=O)C2OC2C(=O)O)NC(=O)CN2CCN(CC(=O)[O-])CCN(CC(=O)[O-])CCN(CC(=O)[O-])CC2)cc1C(C)C.[177Lu+3]` (mixture of isomers) gave a tracer uptake of 0.037 %ID/g (HT-29 tumour model; host not given, blood; 72 h, tumour-bearing).
For `O=C(/C=C/c1cccc(Br)c1)c1ccccc(=O)c1O`, the CC50 was 17.1 µM (HepDES19; cell growth or viability, MTS; 72 h).
`C=CC(=O)Nc1cccc(Cn2ncc3cnc(Nc4cnn(CCOC)c4)nc32)c1` — result for “percent of control”: 88% (BMPR1A human; binding, KINOMEscan; 100 nM; lower = stronger binding).
`COC(=O)c1c(C)cc(OC)c(=O)c(O)c1OC` has a CC50 of over 100 µM (HepDES19; cell growth or viability, MTS; 72 h).
`Cc1nn(-c2cccc(N)c2)c(=O)c2cnc(Nc3ccc(N4CCNCC4)cc3)nc12` has an IC50 of over 10 µM (FLT4 (Homo sapiens, UniProt P35916); enzyme activity, inhibitor).
`CC(C)(O)c1ncc([S@](N)(=O)=NC(=O)Nc2c3c(cc4c2CCC4)CCC3)s1` gave a stability time of at least 2 h (human whole blood; wet ice and room temperature).
With `N#C[C@@H]1CC(F)(F)CN1C(=O)CNC(=O)c1ccnc2c(NC(=O)[C@@H](N)CCCCNC(=O)CCOCCOCCOCCOCCOCCOCCNC(=O)CN3CCN(CC(=O)[O-])CCN(CC(=O)[O-])CCN(CC(=O)[O-])CC3)cccc12.[177Lu+3]` the tracer uptake was 0.22 %ID/g (U-87 MG tumour model; host not given, bone; 24 h, tumour-bearing).
For `COc1cccc(OC)c1-c1cc(C(=O)NC2(C(=O)O)C3CC4CC(C3)CC2C4)nn1-c1ccc(C(=O)N(C)CCCN(C)CCCN(C)C(=O)[C@H](CCCCNC(=O)[C@H](CC(C)C)NC(=O)C2OC2C(=O)O)NC(=O)CN2CCN(CC(=O)[O-])CCN(CC(=O)[O-])CCN(CC(=O)[O-])CC2)cc1C(C)C.[177Lu+3]` (mixture of isomers), the tracer uptake was 0.4 %ID/g (HT-29 tumour model; host not given, blood; 24 h, tumour-bearing).
With `C=C(NC(=O)c1csc(-c2nc3c(cc2O)-c2nc(cs2)C(=O)NC(C(C)O)C(=O)NC(=C(C)OC)c2nc(cs2)C(=O)NC2c4nc(cs4)C(=O)NC(COC(=O)c4c5c6c(cccc6n4O)COC(=O)C(OC4CC(C)(O)C(N(C)C)C(C)O4)C2OC5)c2nc-3cs2)n1)C(N)=O` (centres unmarked) the AUC(0-last) was 5480 ± 1000 ng·h/mL (Sprague-Dawley rat, both sexes, plasma; intravenous infusion, 18 mg/kg single dose).
`COc1cccc(OC)c1-c1cc(C(=O)NC2(C(=O)O)C3CC4CC(C3)CC2C4)nn1-c1ccc(C(=O)NCCNC(=O)[C@H](CCCCNC(=O)[C@H](CC(C)C)NC(=O)C2OC2C(=O)O)NC(=O)CN2CCN(CC(=O)[O-])CCN(CC(=O)[O-])CCN(CC(=O)[O-])CC2)cc1C(C)C.[177Lu+3]` (mixture of isomers) gave a tracer uptake of 0.75 %ID/g (HT-29 tumour model; host not given, bone; 4 h, tumour-bearing).
For `CNC(=O)C1CCCN(C(=O)C2CC3CCC2N3C(=O)[C@@H]2C[C@@H](O)CN2C(=O)NCc2cccc(Cl)c2F)C1` (mixture of isomers), the remaining activity was 102% and 95.5% (Cytochrome P450 2B6 (CYP2B6, Homo sapiens, UniProt P20813); preincubation without NADPH; human; 16.7 µM; reference: negative control).
With `COC(=O)c1c(CCl)cc(O)c(=O)c(O)c1C(=O)OC` the CC50 was 72.4 µM (HepDES19; cell growth or viability, MTS; 72 h).
`CN1CCN(c2ccc3[nH]c(-c4ccc5[nH]c(-c6ccc(OCCCCNC(=O)c7cccc8c7C(=O)OC87c8ccc(N(C)C)cc8[Si](C)(C)c8cc(N(C)C)ccc87)cc6)nc5c4)nc3c2)CC1` gave a Kd of 96 ± 53 µM (Albumin; binding, fluorescence titration; PBS; 1 h).
`COC(=O)Nc1nc2cc(C(O)c3ccc(F)cc3)ccc2[nH]1` (centres unmarked) has a revertants of 40.3 revertants/plate (Escherichia coli; Ames preincubation test; WP2 uvrA; 54.7 µg/plate, without S9).
`CC(C)C[C@H](NC(=O)[C@@H](CCCCNC(=O)[C@@H](Cc1ccccc1)NC(=O)CCCCCNC(=O)CN1CCN(CC(=O)O)CCN(CC(=O)O)CCN(CC(=O)O)CC1)NC(=O)[C@H](Cc1ccc(O)cc1)NC(=O)[C@H](CO)NC(=O)[C@H](Cc1c[nH]c2ccccc12)NC(=O)[C@H](Cc1c[nH]cn1)NC(=O)[C@@H]1CCC(=O)N1)C(=O)N[C@@H](CCCNC(=N)N)C(=O)N1CCC[C@H]1C(=O)NCC(N)=O` [indium-111 labelled] has a tissue uptake of 0.38 ± 0.07 %ID/g (female athymic nude mice, tumor; intravenous, 0.037 MBq, 1 h).
`CN(C)c1ccc2c(c1)C(C)(C)c1cc(N(C)C)ccc1C21OC(=O)c2cc(C(=O)O)ccc21` gave a Kd of 184 ± 114 µM (Albumin; binding, fluorescence titration; PBS).
`COC(=O)c1cc(O)c(=O)c(O)cc1C` gave a CC50 of over 100 µM (HepDES19; cell growth or viability, MTS; 72 h).
Under “revertant fold increase”, `CC(C)OCCOCc1ccc(OCC(O)CN(N=O)C(C)C)cc1` (centres unmarked) is recorded as 1 fold (Salmonella typhimurium; Ames test; TA98; 5000 µg/plate, 30 % hamster S9; reference: solvent control).
`CN1CCCNC(=O)c2cccc(c2)C(=O)NCCCN(C)CCCNc2cccc3c2C(=O)c2cccc(c2C3=O)NCCC1`: “log2 fold change” -0.749 (SAS; RNA-Seq, measured: POC1A mRNA; 1 µM, 6 h; reference: untreated cells).
The CC50 of `CC(C)c1ccc(O)c(=O)c(O)c1` is reported as 25 µM (HepDES19; cell growth or viability, MTS; 72 h).
`CC(C)Cc1ccc(C(C)C(=O)N[C@@H](CCCCNC(=O)CCOCCOCCOCCOCCOCCOCCNC(=O)CN2CCN(CC(=O)[O-])CCN(CC(=O)[O-])CCN(CC(=O)[O-])CC2)C(=O)Nc2cccc3c(C(=O)NCC(=O)N4CC(F)(F)C[C@H]4C#N)ccnc23)cc1.[177Lu+3]` (some centres unmarked) has a tracer uptake of 0.44 %ID/g (U-87 MG tumour model; host not given, stomach; 24 h, tumour-bearing).
`CN(C)c1ccc2c(c1)[Si](C)(C)c1cc(N(C)C)ccc1C21OC(=O)c2ccc(C(=O)O)cc21` has a Kd of 5 ± 1 µM (Albumin; binding, fluorescence titration; PBS).
`COc1ccc(OC)c(C2=Nn3c(nnc3C3CCCCC3)SC2)c1` gave an IC50 of 48.9 µM (Uncharacterized protein; inhibitor, coupled colorimetric; Trypanosoma brucei).

Repeated from above:
With `C=C(NC(=O)c1csc(-c2nc3c(cc2O)-c2nc(cs2)C(=O)NC(C(C)O)C(=O)NC(=C(C)OC)c2nc(cs2)C(=O)NC2c4nc(cs4)C(=O)NC(COC(=O)c4c5c6c(cccc6n4O)COC(=O)C(OC4CC(C)(O)C(N(C)C)C(C)O4)C2OC5)c2nc-3cs2)n1)C(N)=O` (centres unmarked) the AUC(0-last) was 5480 ± 1000 ng·h/mL (Sprague-Dawley rat, both sexes, plasma; intravenous infusion, 18 mg/kg single dose).
`COc1cccc(OC)c1-c1cc(C(=O)NC2(C(=O)O)C3CC4CC(C3)CC2C4)nn1-c1ccc(C(=O)NCCNC(=O)[C@H](CCCCNC(=O)[C@H](CC(C)C)NC(=O)C2OC2C(=O)O)NC(=O)CN2CCN(CC(=O)[O-])CCN(CC(=O)[O-])CCN(CC(=O)[O-])CC2)cc1C(C)C.[177Lu+3]` (mixture of isomers) gave a tracer uptake of 0.75 %ID/g (HT-29 tumour model; host not given, bone; 4 h, tumour-bearing).
